Measured values of several laboratories.
Values joined by “and” are separate records of one study, mostly repeats; a detail may differ. Numbers after ± are the reported error.
XPO1: Exportin-1 (XPO1, Homo sapiens, UniProt O14980)
Sequence of UniProt O14980 (whole entry, looked up): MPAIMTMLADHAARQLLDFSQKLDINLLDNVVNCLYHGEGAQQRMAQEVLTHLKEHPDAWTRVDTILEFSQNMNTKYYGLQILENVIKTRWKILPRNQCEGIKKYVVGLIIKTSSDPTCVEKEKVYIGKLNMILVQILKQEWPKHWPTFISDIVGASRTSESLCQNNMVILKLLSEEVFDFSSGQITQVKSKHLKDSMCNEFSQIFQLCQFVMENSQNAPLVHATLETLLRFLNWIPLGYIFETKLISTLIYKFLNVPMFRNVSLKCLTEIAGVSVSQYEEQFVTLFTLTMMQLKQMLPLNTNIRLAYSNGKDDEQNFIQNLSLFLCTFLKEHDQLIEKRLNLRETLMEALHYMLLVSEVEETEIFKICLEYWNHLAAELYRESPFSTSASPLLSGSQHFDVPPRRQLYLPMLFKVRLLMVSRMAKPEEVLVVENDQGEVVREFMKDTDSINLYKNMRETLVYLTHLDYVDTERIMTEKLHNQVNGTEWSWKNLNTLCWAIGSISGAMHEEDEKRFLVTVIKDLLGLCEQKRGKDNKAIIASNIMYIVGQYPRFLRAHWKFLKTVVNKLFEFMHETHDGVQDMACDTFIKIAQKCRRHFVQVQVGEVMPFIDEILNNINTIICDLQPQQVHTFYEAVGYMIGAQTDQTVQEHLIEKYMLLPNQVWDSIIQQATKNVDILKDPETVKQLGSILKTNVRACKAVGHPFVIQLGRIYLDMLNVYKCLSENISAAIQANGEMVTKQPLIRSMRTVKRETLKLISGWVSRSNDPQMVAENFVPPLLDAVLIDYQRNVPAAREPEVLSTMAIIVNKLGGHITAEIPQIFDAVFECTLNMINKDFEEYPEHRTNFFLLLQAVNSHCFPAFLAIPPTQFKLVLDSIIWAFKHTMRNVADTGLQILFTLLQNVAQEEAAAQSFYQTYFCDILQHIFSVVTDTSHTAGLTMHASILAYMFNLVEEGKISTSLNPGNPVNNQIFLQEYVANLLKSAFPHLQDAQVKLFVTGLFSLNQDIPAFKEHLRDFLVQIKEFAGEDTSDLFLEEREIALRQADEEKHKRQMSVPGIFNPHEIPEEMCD
Nuclear receptor subfamily 2 group C member 2 ligand-binding domain: Nuclear receptor subfamily 2 group C member 2, ligand-binding domain (Homo sapiens, UniProt P49116)
Sequence of UniProt P49116 (whole entry, looked up): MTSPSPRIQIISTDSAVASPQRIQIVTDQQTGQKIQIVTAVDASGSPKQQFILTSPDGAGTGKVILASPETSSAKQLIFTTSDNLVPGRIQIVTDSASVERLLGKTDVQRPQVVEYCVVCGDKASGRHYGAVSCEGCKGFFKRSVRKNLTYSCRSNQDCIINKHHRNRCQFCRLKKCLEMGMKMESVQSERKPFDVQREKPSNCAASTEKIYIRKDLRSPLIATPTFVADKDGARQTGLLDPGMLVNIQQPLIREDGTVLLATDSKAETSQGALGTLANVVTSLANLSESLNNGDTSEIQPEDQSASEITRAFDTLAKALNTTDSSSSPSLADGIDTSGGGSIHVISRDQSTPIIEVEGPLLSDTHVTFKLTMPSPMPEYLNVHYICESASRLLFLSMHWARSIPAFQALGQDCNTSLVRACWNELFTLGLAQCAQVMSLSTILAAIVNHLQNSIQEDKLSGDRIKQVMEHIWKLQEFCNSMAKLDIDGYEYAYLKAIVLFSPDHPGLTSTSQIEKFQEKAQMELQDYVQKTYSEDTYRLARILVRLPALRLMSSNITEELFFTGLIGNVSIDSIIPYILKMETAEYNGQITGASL
TOP2A: DNA topoisomerase 2-alpha (TOP2A, Homo sapiens, UniProt P11388)
Sequence of UniProt P11388 (whole entry, looked up): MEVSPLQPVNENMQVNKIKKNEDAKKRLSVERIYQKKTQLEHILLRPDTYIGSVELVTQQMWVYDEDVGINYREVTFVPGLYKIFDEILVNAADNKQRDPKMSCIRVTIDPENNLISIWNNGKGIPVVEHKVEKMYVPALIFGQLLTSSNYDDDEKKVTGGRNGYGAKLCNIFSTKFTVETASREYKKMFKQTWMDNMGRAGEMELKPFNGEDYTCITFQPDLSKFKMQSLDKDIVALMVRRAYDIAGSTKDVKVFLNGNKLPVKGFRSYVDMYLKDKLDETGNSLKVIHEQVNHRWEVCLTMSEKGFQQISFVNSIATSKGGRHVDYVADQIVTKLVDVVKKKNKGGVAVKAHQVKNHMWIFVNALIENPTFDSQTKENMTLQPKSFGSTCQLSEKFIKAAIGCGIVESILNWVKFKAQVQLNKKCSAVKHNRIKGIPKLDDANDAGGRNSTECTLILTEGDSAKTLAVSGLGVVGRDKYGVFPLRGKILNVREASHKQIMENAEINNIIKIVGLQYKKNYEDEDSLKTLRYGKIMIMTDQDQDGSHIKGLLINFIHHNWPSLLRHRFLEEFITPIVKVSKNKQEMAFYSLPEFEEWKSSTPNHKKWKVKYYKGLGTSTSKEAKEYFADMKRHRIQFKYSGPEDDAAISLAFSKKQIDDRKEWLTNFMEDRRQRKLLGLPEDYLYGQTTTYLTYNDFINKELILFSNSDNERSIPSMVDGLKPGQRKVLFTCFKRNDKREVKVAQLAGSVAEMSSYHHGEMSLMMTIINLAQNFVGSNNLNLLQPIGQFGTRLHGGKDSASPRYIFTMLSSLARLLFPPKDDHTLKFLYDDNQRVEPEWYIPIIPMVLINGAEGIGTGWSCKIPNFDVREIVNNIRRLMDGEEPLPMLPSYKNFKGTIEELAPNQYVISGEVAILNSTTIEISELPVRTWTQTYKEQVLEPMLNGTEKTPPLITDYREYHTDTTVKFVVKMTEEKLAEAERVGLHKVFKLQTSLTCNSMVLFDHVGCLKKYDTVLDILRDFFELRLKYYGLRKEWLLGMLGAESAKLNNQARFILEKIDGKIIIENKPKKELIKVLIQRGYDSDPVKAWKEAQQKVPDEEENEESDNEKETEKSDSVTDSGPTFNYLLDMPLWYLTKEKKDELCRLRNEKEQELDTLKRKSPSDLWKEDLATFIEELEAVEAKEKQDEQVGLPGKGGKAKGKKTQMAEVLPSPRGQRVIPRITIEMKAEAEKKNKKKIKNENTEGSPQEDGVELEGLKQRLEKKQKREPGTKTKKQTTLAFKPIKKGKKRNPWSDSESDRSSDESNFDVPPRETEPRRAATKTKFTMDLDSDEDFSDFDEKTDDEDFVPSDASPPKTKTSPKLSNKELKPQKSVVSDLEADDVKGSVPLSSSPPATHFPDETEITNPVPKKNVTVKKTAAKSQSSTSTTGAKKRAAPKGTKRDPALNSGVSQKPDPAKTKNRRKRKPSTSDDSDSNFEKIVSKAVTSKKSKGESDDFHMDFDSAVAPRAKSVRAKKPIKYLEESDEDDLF
T1: ssDNA, aptamer; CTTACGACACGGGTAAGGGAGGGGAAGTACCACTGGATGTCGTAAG
Sequence of UniProt P27361 (whole entry, looked up): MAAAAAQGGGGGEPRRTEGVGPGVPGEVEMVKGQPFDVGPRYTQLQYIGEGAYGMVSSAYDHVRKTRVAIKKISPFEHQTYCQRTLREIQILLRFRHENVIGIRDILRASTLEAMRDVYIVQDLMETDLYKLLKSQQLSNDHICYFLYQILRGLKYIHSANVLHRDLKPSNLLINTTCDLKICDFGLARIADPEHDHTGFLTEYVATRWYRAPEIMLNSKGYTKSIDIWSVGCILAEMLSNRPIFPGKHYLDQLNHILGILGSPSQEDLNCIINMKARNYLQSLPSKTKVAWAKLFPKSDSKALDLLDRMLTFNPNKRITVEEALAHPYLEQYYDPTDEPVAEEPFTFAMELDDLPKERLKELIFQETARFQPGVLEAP
Sequence of UniProt Q96S37 (whole entry, looked up): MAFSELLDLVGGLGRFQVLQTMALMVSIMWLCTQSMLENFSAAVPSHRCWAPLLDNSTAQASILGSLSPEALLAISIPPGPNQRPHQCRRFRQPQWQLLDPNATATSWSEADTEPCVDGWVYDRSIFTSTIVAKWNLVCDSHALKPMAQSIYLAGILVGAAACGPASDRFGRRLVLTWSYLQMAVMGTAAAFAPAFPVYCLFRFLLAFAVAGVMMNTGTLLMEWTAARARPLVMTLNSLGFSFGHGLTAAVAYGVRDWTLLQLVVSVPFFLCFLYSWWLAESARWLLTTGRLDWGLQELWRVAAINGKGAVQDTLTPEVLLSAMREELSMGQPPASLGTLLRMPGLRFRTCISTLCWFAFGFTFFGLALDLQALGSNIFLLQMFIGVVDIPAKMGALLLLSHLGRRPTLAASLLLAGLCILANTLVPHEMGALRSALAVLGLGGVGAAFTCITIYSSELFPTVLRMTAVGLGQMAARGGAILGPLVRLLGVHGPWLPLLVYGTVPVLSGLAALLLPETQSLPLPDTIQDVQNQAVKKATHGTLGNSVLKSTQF
Sequence of UniProt P31941 (whole entry, looked up): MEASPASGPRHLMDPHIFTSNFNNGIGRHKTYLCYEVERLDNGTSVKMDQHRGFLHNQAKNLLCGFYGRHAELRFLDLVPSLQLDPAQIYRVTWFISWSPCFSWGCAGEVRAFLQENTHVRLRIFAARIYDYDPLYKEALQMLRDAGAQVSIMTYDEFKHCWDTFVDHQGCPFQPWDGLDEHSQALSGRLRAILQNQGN
Sequence of UniProt P51575 (whole entry, unmodified, looked up): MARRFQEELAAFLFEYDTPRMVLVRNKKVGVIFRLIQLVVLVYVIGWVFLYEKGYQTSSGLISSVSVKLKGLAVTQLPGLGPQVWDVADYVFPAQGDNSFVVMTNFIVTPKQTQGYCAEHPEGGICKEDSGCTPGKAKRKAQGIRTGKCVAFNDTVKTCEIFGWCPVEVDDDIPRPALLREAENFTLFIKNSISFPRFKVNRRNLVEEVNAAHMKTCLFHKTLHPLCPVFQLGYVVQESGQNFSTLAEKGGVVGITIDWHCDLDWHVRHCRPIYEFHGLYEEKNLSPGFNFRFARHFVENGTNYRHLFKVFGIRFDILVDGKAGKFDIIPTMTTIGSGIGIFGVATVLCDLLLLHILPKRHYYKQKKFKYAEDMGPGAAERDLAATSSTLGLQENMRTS
Sequence of UniProt Q16774 (whole entry, unmodified, looked up): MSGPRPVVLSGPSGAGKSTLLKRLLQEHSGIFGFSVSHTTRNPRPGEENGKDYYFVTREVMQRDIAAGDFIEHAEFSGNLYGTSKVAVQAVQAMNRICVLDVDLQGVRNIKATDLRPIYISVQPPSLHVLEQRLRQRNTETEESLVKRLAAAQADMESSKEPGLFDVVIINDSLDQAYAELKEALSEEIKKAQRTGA

For `CC(=C/C(=O)O)/C=C/C=C(\C)C1C=C2C(C)(C)CCCC2(C)O1` (centres unmarked), “Pearson correlation coefficient” read 0.68 (Rhodopsin (RHO, Homo sapiens, UniProt P08100, P23H); ER retention, immunostaining co-localization, refers to: opsin with calnexin; COS-7 transfected P23H; 5.00 µM).
`CCS(=O)(=O)c1nc(C2CC2)cc(C(F)(F)F)n1`: “cells with nuclear reporter” 3.43% and 2.4% and 3.7% (XPO1; nuclear export, high content imaging; HeLa Kyoto reporter; 0.158 µM, 2 h).
For `COc1cc(/C=C/c2ccc(O)cc2)cc(OC)c1`, “koff fold decrease” read 12.8 fold (O-methyltransferase (Sorghum bicolor, UniProt A0A1B6PFV1); biolayer interferometry; added: saturating SAH; reference: apo protein).
For `Nc1ncnc2c1ncn2[C@@H]1O[C@H](COP(=O)(O)OP(=O)(O)NP(=O)(O)O)[C@@H](O)[C@H]1O`, “relative channel-depressing potency” read 10% (ATP-sensitive inward rectifier potassium channel 1 (Rattus norvegicus, UniProt P35560); inside-out patch clamp; renal principal cells, rat; reference: ATP).
`COCCC(=O)N1CCC(Oc2ccccc2)C1` (centres unmarked) has a fold enrichment of 0.774 (DCAF1 (Homo sapiens, UniProt Q9Y4B6); binding, affinity selection mass spectrometry; reference: other proteins in batch).
For `O=C([O-])c1ccccc1O.[Na+]`, the koff was 2.26e-05 s⁻¹ (Nuclear receptor subfamily 2 group C member 2 ligand-binding domain; SPR imaging; 600 nM).
`Cc1cccc(N2CC(C(=O)O)CC2=O)c1` (centres unmarked) gave a fold enrichment of 0.791 (YTH domain-containing protein 1 (Homo sapiens, UniProt Q96MU7); binding, affinity selection mass spectrometry; reference: other proteins in batch).
`CC(C)C[C@@H]1NC(=O)[C@H](C(C)C)NC(=O)CNC(=O)[C@H](CC(N)=O)NC(=O)[C@@H]2CCCN2C(=O)[C@H](Cc2ccc(O)cc2)NC(=O)[C@H](CCCNC(=N)N)NC(=O)[C@H](C)NC(=O)[C@@H](NC(=O)[C@H](CCCCN)NC(=O)[C@@H]2CCCN2C(=O)[C@H](CO)NC(=O)[C@H](C)NC(=O)[C@@H](N)Cc2ccc(O)cc2)CSSC[C@@H](C(=O)N[C@H](C(N)=O)[C@@H](C)O)NC(=O)[C@H](C)NC1=O` has a -TΔS of 4.69 kJ/mol (Alpha-2-HS-glycoprotein, asialo (AHSG, Bos taurus, UniProt P12763); binding, isothermal titration calorimetry; pH 7.0, 25 °C, added: asialofetuin).
Under “normalised MST signal”, `NCCS(=O)(=O)O` is recorded as -0.00695 (SLC6A6 (Homo sapiens, UniProt P31641, Y138A); binding, microscale thermophoresis; 61 nM, room temperature, added: 50 nM labelled protein; higher = more binding).
The Vmax of `O=C1OC(c2ccccc2)=N/C1=C\c1ccc(O)c(O)c1` is reported as 0.05 mg/mL/min (Pancreatic alpha-amylase (Homo sapiens, UniProt P04746); inhibitor, Lineweaver-Burk; 100 ppm, added: starch substrate).
The koff of `CS(=O)(=O)Nc1ccc([N+](=O)[O-])cc1Oc1ccccc1` is reported as 9.84e-07 s⁻¹ (Nuclear receptor subfamily 2 group C member 2 ligand-binding domain; binding).
Under “enthalpy change (ΔH)”, `CC[C@H](C)[C@H](NC(=O)[C@H](CCC(=O)O)NC(=O)[C@H](CCC(=O)O)NC(=O)[C@@H]1CCCN1C(=O)[C@H](CC(=O)O)NC(=O)[C@H](C)NC(=O)[C@H](CCC(N)=O)NC(=O)[C@@H](NC(=O)[C@H](C)NC(=O)[C@@H](NC(=O)[C@H](CO)NC(=O)[C@@H](NC(=O)[C@H](CCCCN)NC(=O)[C@@H](N)Cc1ccc(O)cc1)[C@@H](C)O)C(C)C)[C@@H](C)O)C(=O)N[C@H](C(=O)N[C@H](C(=O)N[C@@H](CC(C)C)C(=O)N[C@@H](COP(=O)(O)O)C(=O)N[C@@H](CC(=O)O)C(=O)N[C@@H](COP(=O)(O)O)C(=O)N[C@@H](CC(=O)O)C(=O)O)C(C)C)[C@@H](C)CC` is recorded as 6.74 ± 1.46 kJ/mol (Small ubiquitin-related modifier 1, residues 17-97 (Homo sapiens, UniProt P63165, C52A); isothermal titration calorimetry; concentration not given, pH 7.4, N-terminally truncated SUMO1).
`Nc1ncnc2c1ncn2[C@@H]1O[C@H](COP(=O)(O)OP(=O)(O)O)[C@@H](O)[C@H]1O` gave a ΔH of -26.4 ± 1.88 kJ/mol (GUK1 (Homo sapiens, UniProt Q16774, S18A); binding, ITC).
`Cn1c([N+](=O)[O-])cnc1COC(N)=O` gave a koff of 1.57e-06 s⁻¹ (Nuclear receptor subfamily 2 group C member 2 ligand-binding domain; SPR imaging; 600 nM).
`N[C@@H](CCO)C(=O)O` has a Km of 10 µM (Slc1a5 (Rattus norvegicus, UniProt D3ZJ25); anion leak current, substrate, whole-cell patch clamp; HEK293 transfected).
For `CCCC[C@H]1CN(c2cccc(C)c2C)C(=O)CN1Cc1cncn1Cc1ccc(C#N)cc1`, the IC50 was 2.2 ± 1.3 µM (Cryptococcus neoformans farnesyltransferase; enzyme activity, inhibitor, fluorescence; added: 1 µM FPP, 0.5 µM dansylated peptide).
`Nc1[nH]nc2nnc(-c3c(-c4ccccc4)nn4ccccc34)cc12` has a kinase activity of 78.5% and 116% and 95.5% (MAPK3 (Homo sapiens, UniProt P27361); ADP-Glo; 1.38 nM, added: MBP substrate).
Under “normalized urate uptake”, `CCc1oc2ccccc2c1C(=O)c1cc(Br)c(O)c(Br)c1` is recorded as 0.939 and 0.879 and 0.964 (SLC22A12 (Homo sapiens, UniProt Q96S37); inhibitor; HEK-293T; 0.01 µM, 10 min, 37 °C, added: [14C]urate 10 µM).
`O=c1nc(SCc2cc(F)cc(C(F)(F)F)c2)nc(SCc2ccc3nc(Cl)ccc3c2)[nH]1`: “ATP hydrolysis rate” 0.768 µM/min and 0.415 µM/min (TOP2A; ATPase activity; 31.25 µM, added: ATP 0.1 mM).
With `O=C(Nc1ccc(CN2CCOCC2)c(C(F)(F)F)c1)c1ccc(C#Cc2cccc3cnccc23)cn1` the activity was 1000 ± 100% (NUDT1 (Homo sapiens, UniProt P36639); activator, ARGO probe luminescence; 10 µM, 1 h preincubation; reference: without activator).
`Nc1ncnc2c1ncn2[C@@H]1O[C@H](COP(=O)(O)OP(=O)(O)O)[C@@H](O)[C@H]1O` has a Km of 16 ± 30 µM (CKMT1A (Homo sapiens, UniProt P12532); substrate, Kinase-Glo luminescence; pH 7.0, reverse reaction, WT mutant, added: second substrate in excess).
`C=C1CN(S(=O)(=O)c2ccc(C)cc2)CCCN(Cc2ccccc2)CCCN(S(=O)(=O)c2ccc(C)cc2)C1` gave an FLuc/RLuc ratio of 0.51 (Protein transport protein Sec61 subunit alpha isoform 1 (Homo sapiens, UniProt P61619); Sec61-dependent translocation, inhibitor, refers to: CD4 signal peptide-FLuc reporter; HEK293; concentration not given, 6 h).
`C=CC(=O)N1CCC(COCC(=O)N2CCN(c3nc(-c4cnc(N)nc4C(F)F)nc(N4CCOC[C@@H]4C)n3)CC2)CC1` has a remaining binding of 92% (CDK14 (Homo sapiens, UniProt O94921); KINOMEscan; 1 µM; reference: DMSO control).
`CC(Nc1nc(N2CCCC2)nc2ccccc12)c1ccccc1` (centres unmarked): “cells with nuclear reporter” 2.37% and 4.89% and 4.45% (XPO1; nuclear export, high content imaging; HeLa Kyoto reporter; 1 µM, 2 h).
With `Nc1ncnc2c1ncn2[C@@H]1O[C@H](COP(=O)(O)CP(=O)(O)OP(=O)(O)O)[C@@H](O)[C@H]1O` the specific binding was 77 CCPM and 93 CCPM (P2X purinoceptor 1 (P2RX1, Homo sapiens, UniProt P51575, K136W); saturation binding; HEK293; 1 nM).
With `C=CC(=O)N1CCC(C(=O)NCC(=O)N2CCN(c3nc(-c4cnc(N)nc4C(F)F)nc(N4CCOCC4)n3)CC2)CC1` the remaining binding was 90% (EGFR (Homo sapiens, UniProt P00533, T790M); KINOMEscan; 1 µM).
`CCC1(O)CCCN(C(=O)c2ccc(-c3ccc(F)c(NC(=O)CCl)c3)cc2)C1` (centres unmarked) has an unmodified protein of 64% and 76% (DNA dC->dU-editing enzyme APOBEC-3A (Homo sapiens, UniProt P31941); covalent adduct, intact protein MS; 1 h, 1-fold, 25 µM).
The displacement of `CCOc1cc(-c2nncn2C)ccc1Nc1ncc2cc(C)nc(NCC(C)(C)C)c2n1` is reported as 21% (RIPK2 (Homo sapiens, UniProt O43353); binding, LanthaScreen binding; 1 µM).
`CN(C(=O)n1cnc(-c2ccc[n+]([O-])c2)c1)C1CCCCC1` has an ED50 of 0.027 mg/kg (Faah (Mus musculus, UniProt O08914); enzyme activity, inhibitor; NMRI mouse, brain; oral, 8 h).
With `c1ccc(OC[C@@H]2CN(CCN3CCc4ccccc43)CCO2)cc1` the inhibition was 79% (HTR1A (Homo sapiens, UniProt P08908); radioligand binding; concentration not given, added: [3H]8-OH-DPAT).
`O=c1nc(SCc2ccc(C(F)(F)F)cc2)nc(SCc2csc3ccc(Cl)cc23)[nH]1` gave a decatenated DNA of 0% (TOP2A; decatenation; 0.12 µM, replicate 1).
`Nc1ncnc2c1ncn2[C@@H]1O[C@H](COP(=O)(O)OP(=O)(O)OP(=O)(O)O)[C@@H](O)[C@H]1O` has a Kd of 0.791 µM (T1, ssDNA, aptamer; ITC).
For `CC[C@@H]1[C@H](F)C(=O)N[C@@H]1COc1nccc2cc(C(N)=O)c(OC)cc12`, the inhibition was 4.2% (MARK2 (Homo sapiens, UniProt Q7KZI7); ATP-site probe binding, ActivX profiling; THP-1 cell lysate; 0.2 mM, Lys2 site).
`Cc1ccc(N2CC(C(N)=O)CC2=O)cc1` (centres unmarked): “log fold enrichment” 0 (F-box only protein 22, with SKP1 (Homo sapiens, UniProt Q8NEZ5); binding, affinity selection mass spectrometry; reference: other proteins in batch).
`CC(=O)N[C@@H](COP(=O)(O)O)C(=O)N1CCC[C@H]1C(=O)N[C@H](C(=O)N[C@@H](Cc1ccccc1)C(N)=O)[C@@H](C)O` gave a ΔG of -32.2 ± 0.418 kJ/mol (Breast cancer type 1 susceptibility protein, tandem BRCT domains (BRCA1, Homo sapiens, UniProt P38398); binding, isothermal titration calorimetry; BRCT domain, BACH1 peptide).
